Measured values of several laboratories.
Compare with care: the assays were run in different laboratories.
EGFR G719C: Epidermal growth factor receptor (EGFR, Homo sapiens, UniProt P00533, G719C)
EGFR G719S: Epidermal growth factor receptor (EGFR, Homo sapiens, UniProt P00533, G719S)

C=CC(=O)N1CCCC(n2c(=O)c3ncccc3n(Cc3ccc(Oc4ccccc4)cc3)c2=O)C1 (stereo not shown)  remaining binding (EGFR G719C; cell-free assay, competition with immobilised ligand; 1 µM): 88%
CCN1CCN(Cc2ccc(C(=O)Nc3ccc(C)c(NCc4cnc5[nH]ccc5c4OC)c3)cc2C(F)(F)F)CC1  remaining binding (Epidermal growth factor receptor (EGFR, Homo sapiens, UniProt P00533, L861Q); binding, competition with immobilised ligand; 1 µM): 0%
CCN1CCN(Cc2ccc(NC(=O)c3ccc(C)c(NC(=O)c4cncc(-c5cccs5)c4)c3)cc2C(F)(F)F)CC1  remaining binding (EGFR G719S; binding, competition with immobilised ligand; 1 µM): 0.3%
CC(C)=CC1OC(C)(C)C2C=C3C(=O)C(Cl)=CC(O)C3C3C(O)C4OC4C(=O)C132 (stereo not shown)  remaining binding (Epidermal growth factor receptor (EGFR, Homo sapiens, UniProt P00533, T790M); cell-free assay, competition with immobilised ligand; 10 µM): 90%
Cc1ccc(-c2c(/C=C(\C#N)C(=O)NC(C)C)n(CCCO)c3ncnc(N)c23)cc1  remaining binding (EGFR G719S; cell-free assay, competition with immobilised ligand; 1 µM): 100%
CNC(=O)C1CCN(c2cc(C)c(F)cc2NC(=O)c2ccc(-c3cc(O)ccc3C)c(C)c2)CC1  remaining binding (EGFR G719C; binding, competition with immobilised ligand; 1 µM): 65%
CNC1C[S+]2CC[S+]3CC[S+](C1)[Ru-4]321([N]=C=S)[n]2c3ccc(OC)cc3c3c4c(c5cc(F)c[n+]1c5c32)C(=O)NC4=O (stereo not shown)  remaining binding (Epidermal growth factor receptor (EGFR, Homo sapiens, UniProt P00533, A750P/del747-749); KinomeScan; 0.1 µM; relative to: untreated): 92%
COc1c(Cl)cccc1Nc1c(-c2ccncc2C#C[C@@]2(C)CCCN2C(=O)/C=C/CN(C)C)[nH]c2c1C(=O)NCC2  remaining binding (EGFR G719S; cell-free assay, competition with immobilised ligand; 3 µM): 0%
C=CC(=O)N1CCc2ccc(-n3c(=O)ccc4cnc5ccc(-c6cnn(C)c6)cc5c43)cc21  remaining binding (Epidermal growth factor receptor (EGFR, Homo sapiens, UniProt P00533); KINOMEscan; 1 µM; relative to: DMSO control): 100%
Nc1ncc2c(n1)-c1c([nH]c3ccc(C4=CCOCC4)cc13)CCC2  remaining binding (Epidermal growth factor receptor (EGFR, Homo sapiens, UniProt P00533, del752-759); binding, competition with immobilised ligand; 1 µM): 76%
